Results collected from several papers.
“And” joins repeats or separate records; there may be more than shown. ± marks the error that the study gave. Converted amounts (≈) assume the structure as drawn.
Sequence of UniProt P50052 (whole entry, unmodified, looked up): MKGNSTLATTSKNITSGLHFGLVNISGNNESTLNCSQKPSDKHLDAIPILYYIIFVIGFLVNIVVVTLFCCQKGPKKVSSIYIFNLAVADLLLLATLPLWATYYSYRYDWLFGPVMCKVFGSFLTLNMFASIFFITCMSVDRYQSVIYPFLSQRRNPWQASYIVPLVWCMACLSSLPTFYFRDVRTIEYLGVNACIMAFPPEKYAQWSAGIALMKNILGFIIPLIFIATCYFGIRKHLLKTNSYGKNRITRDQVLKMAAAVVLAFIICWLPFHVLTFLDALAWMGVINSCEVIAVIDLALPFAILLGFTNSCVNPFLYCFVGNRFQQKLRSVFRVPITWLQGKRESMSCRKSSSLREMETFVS

Compound	target or system	test	system	setting	how to read	quantity	value
COCc1ccc(C=O)n1CCCC(=O)O	–	hydroxyl radical scavenging, H2O2/FeSO4, H2DCF-DA	–	50% scavenging	–	ED50	11900 nM
[64Cu+2].c1ccc(CNCc2ccc(CN3CCCN4CCNCCCN(CC4)CC3)cc2)nc1	CXCR4	–	NOD/SCID mouse, U87 and U87-stb-CXCR4 xenografts, lungs	iv, 480 min, ex vivo	–	tissue uptake	6.1 ± 1.29 %ID/g
CCCC[C@H](NC(=O)[C@@H](NC(=O)[C@H](CC(=O)O)NC(=O)[C@H](CCC(N)=O)NC(=O)[C@H](CC(C)C)NC(=O)[C@H](CC(C)C)NC(=O)[C@H](CCCN)NC(=O)[C@H](CCCNC(=N)N)NC(=O)[C@H](C)NC(=O)[C@H](CO)NC(=O)[C@H](CC(C)C)NC(=O)[C@H](CCC(N)=O)NC(=O)[C@H](CC)NC(=O)[C@H](CC(C)C)NC(=O)[C@@H](NC(=O)[C@H](CCCN)NC(=O)[C@H](CCCNC(=N)N)NC(=O)[C@H](Cc1ccc(O)cc1)NC(=O)[C@H](CO)NC(=O)[C@H](CCC(N)=O)NC(=O)[C@@H](NC(=O)[C@H](Cc1ccccc1)NC(=O)[C@@H](NC(=O)[C@H](C)NC(=O)[C@H](CC(=O)O)NC(=O)[C@H](C)NC(=O)CCc1ccc(O)cc1)[C@@H](C)CC)[C@@H](C)O)C(C)C)[C@@H](C)CC)C(=O)N[C@@H](CC(=O)O)C(=O)N[C@@H](CCCNC(=N)N)C(=O)NC	–	GH release, ELISA	male Sprague-Dawley rat, anaesthetised, serum	subcutaneous, 3 µg/kg, 0 min	–	serum GH level	36.7 ± 10.2 ng/mL
CCCCC/C=C/C(=O)CCc1ccc(O)c(OC)c1	mAb 5-D8	antibody binding, indirect competitive ELISA	–	together with: coating antigen hapten 4-OVA	–	IC50	0.359 µg/mL (≈ 1.3 µM)
O=c1c(OCc2ccccc2)c(-c2cccc([N+](=O)[O-])c2)oc2ccccc12	–	–	diabetic rat	5 mg/kg, p-nitrophenyl β-glucoside induced	–	serum alkaline phosphatase	211 ± 4.82 IU
CCc1nc2ccc(N(Cc3ccccc3)C(=O)c3cccs3)cc2c(=O)n1Cc1ccc(-c2ccccc2-c2nn[nH]n2)cc1	Type-2 angiotensin II receptor (AGTR2, Homo sapiens, UniProt P50052, M214A)	ligand displacement, radioligand	–	cell membranes	–	Ki	8.32 nM
CCOC(=O)Cc1csc(NC(=O)CCN2CCC(O)CC2)n1	–	–	–	0.1 mM, 1 h	–	DPPH radical scavenging	14%
O=c1c(OCc2ccccc2)c(-c2ccc(Cl)cc2)oc2ccccc12	–	–	diabetic rat	7.5 mg/kg, 28 days, p-nitrophenyl β-glucoside induced	–	serum total cholesterol	140 ± 4.76 mg/dL
COc1ccc2c(c1)c(CC(=O)OCOC(C)=O)c(C)n2C(=O)c1ccc(Cl)cc1	–	acetic acid writhing test	BALB/c mouse	intraperitoneal, 10 mg/kg	reference: negative control	analgesia	61.8% and 61.7%
C=C(c1cc(F)c(C(=O)O)c(F)c1)c1cc2c(cc1C)C(C)(C)CCC2(C)C	–	RNA sequencing, refers to: Emr4 mRNA	rat, brain	dose not given, 24 h, single dose	reference: vehicle	log2 fold change	-0.1
NS(=O)(=O)Nc1ncnc(OCCOc2ncc(Br)cn2)c1-c1ccc(Br)cc1	–	Michaelis-Menten plot, refers to: compound formation	female Sprague-Dawley rat, liver microsomes	1500 mg/kg daily, 4 weeks	–	Vmax	478 ± 27 pmol/min/mg
CN(C)c1ccc(-c2oc3ccccc3c(=O)c2OCc2ccccc2)cc1	–	–	diabetic rat	7.5 mg/kg, 28 days, p-nitrophenyl β-glucoside induced	–	serum total cholesterol	130 ± 4.66 mg/dL
CCOC(=O)CCC(NC(=O)C(NC(=O)c1c(C)nn(-c2cc[nH]c(=O)c2)c1C)C(C)C)C(=O)OCC (centres unmarked)	–	single-cell RNA sequencing	intratumoral CD45+ immune cells, C57BL/6 mice, B16-F10 tumour	dose not given, together with: anti-PD-L1	reference: enantiomer	CD8 T cell cluster share	increased
[2H]C([2H])([2H])C(c1cc2nnc(-c3cc(F)ccc3F)n2nc1OCc1ncnn1C)(C([2H])([2H])[2H])C([2H])([2H])[2H]	–	–	GAERS rats	oral, 0.075 to 100 mg/kg	–	duration of SWD inhibition	> 130 min
CCCCCCCCCn1cc(C(N)(CO)CO)nn1	–	–	APP/PS1 mouse, cortex, hippocampus	dose not given	–	Lamp1 and TFEB protein level	increased
O=C(C=Cc1ccc(O)c(O)c1)OC1CC(O)(C(=O)O)CC(O)C1OC(=O)C=Cc1ccc(O)c(O)c1 (centres unmarked)	–	decreased	Kunming mice, isoprenaline-induced myocardial infarction, serum	intravenous, 30 mg/kg daily for 7 days, day 7	reference: model group	creatine kinase activity	decreased
CC[C@H](C)[C@H](NC(=O)[C@H](Cc1c[nH]cn1)NC(=O)[C@@H]1CSSC[C@H](NC(=O)[C@H](Cc2c[nH]cn2)NC(=O)[C@H](Cc2ccccc2)NC(=O)CN2CCN(CC(=O)O)CCN(CC(=O)O)CCN(CC(=O)O)CC2)C(=O)N2C[C@H](O)C[C@H]2C(=O)N[C@@H](Cc2ccc(O)c(Cl)c2)C(=O)N[C@@H](CC(=O)O)C(=O)N[C@@H](CC(C)C)C(=O)N1)C(=O)N[C@@H](CC(C)C)C(=O)NCc1ccc(CNC(=O)CN2CCN(CC(=O)O)CCN(CC(=O)O)CCN(CC(=O)O)CC2)cc1 [indium-111 labelled]	–	PET/SPECT imaging	rat, carotid crush thrombosis model	30 to 90 min post-injection	reference: thrombus over contralateral carotid	thrombus to contralateral ratio	> 4 fold
COc1cc(F)c([C@@H]2CNC(=O)[C@H]2NC(=O)Nc2ccccc2)c(F)c1	–	flow cytometry	mouse, myocardial infarction (LAD ligation), heart	3 mg/kg, 72 h	reference: vehicle	CD206+ of CD64+ macrophages	30%

Compound	target or system	test	system	setting	how to read	quantity	value
CCOP(=O)(CC(=O)Nc1ccc(S(=O)(=O)N(CC(N)=O)c2ccc(N(CC(N)=O)S(=O)(=O)c3ccc(OC)cc3)c3ccccc23)cc1)OCC	–	western blot, refers to: nuclear Nrf2	normal mice, hippocampus and cortex	oral, 40 mg/kg once daily, 60 days	–	protein level	increased
COc1cc(CCC(C)=O)ccc1O	mAb 5-D8	antibody binding, indirect competitive ELISA	–	together with: coating antigen hapten 4-OVA	–	IC50	> 4 µg/mL
CC[C@H]1[C@@H](O)[C@@H]2[C@H](CC[C@]3(C)[C@@H]([C@H](C)CCOS(=O)(=O)[O-])CC[C@@H]23)[C@@]2(C)CC[C@@H](O)C[C@@H]12.[Na+]	–	EchoMRI	ob/ob NASH mouse model	oral, 3 mg/kg once daily, 8 weeks	reference: body weight	whole-body lean mass	33.9 ± 0.9%
COc1c2c(cc3oc(COC4OC(CO)C(O)C(O)C4O)cc(=O)c13)OC(C(C)(C)O)C2 (centres unmarked)	–	analgesic effect	mouse	oral, 2 mg/kg, 2 h	–	hot plate latency	12.4 ± 1.71 s
CCNS(=O)(=O)c1ccc(COc2ccc3nc4ccc(=O)cc-4oc3c2)cc1	–	refers to: SNAIL1.CBG bioluminescence	mouse, 4T1 breast implant tumour, tumour	intravenous, 10 mg/kg single, 4 h	reference: vehicle	reduction	60%
CCCCCCCCCCCC(=O)NCCC(=O)N[C@@H](CCCNC(=N)N)C(=O)N[C@@H](CCCNC(=N)N)C(=O)N[C@@H](CCCNC(=N)N)C(=O)N[C@@H](CCCNC(=N)N)C(=O)N[C@H](CCCNC(=N)N)C(=O)N[C@H](CCCNC(=N)N)C(=O)N[C@H](CCCNC(=N)N)C(=O)N[C@H](CCCNC(=N)N)C(=O)N[C@H](CCCNC(=N)N)C(=O)N[C@@H](CCCCNC(=S)Nc1ccc2c(c1)C(=O)OC21c2ccc(O)cc2Oc2cc(O)ccc21)C(N)=O	Jurkat	RP-HPLC fluorescence, refers to: intact peptide	culture medium	6 h	–	peak area	30.1%
COC(=O)C1C(c2nc3ncccc3[nH]2)=Cc2cc3c(cc2C1c1cc(OC)c(OC)c(OC)c1)OCO3 (centres unmarked)	–	Alamar Blue	splenocytes, mouse	–	reference: CC50 splenocytes over EC50 amastigotes	selectivity index	1.9
C=C1CC[C@H](OCCCNC(=O)CCOCCOCCOCCOCCOCCOCCOCCOCCOCCOCCOCCOCCOCCOCCOCCOCCOCCOCCOCCOCCOCCOCCOCCOCCOCCOCCOCCOCCOCCOCCOCCOCCOCCOCCOCCOCCNC(=O)CCN2C(=O)CC(SC[C@H](NC(=O)[C@H](Cc3ccccc3)NC(=O)[C@H](CC(N)=O)NC(=O)[C@H](Cc3c[nH]cn3)NC(=O)[C@@H](NC(=O)[C@H](CC(=O)O)NC(=O)[C@H](CCC(N)=O)NC(=O)[C@H](CC(C)C)NC(=O)[C@H](CCCCN)NC(=O)[C@H](CCCCN)NC(=O)[C@H](CCCNC(=N)N)NC(=O)[C@H](CC(C)C)NC(=O)[C@H](Cc3c[nH]c4ccccc34)NC(=O)[C@H](CCC(=O)O)NC(=O)[C@@H](NC(=O)[C@H](CCCNC(=N)N)NC(=O)[C@H](CCC(=O)O)NC(=O)[C@H](CCSC)NC(=O)[C@H](CO)NC(=O)[C@H](CC(N)=O)NC(=O)[C@H](CC(C)C)NC(=O)[C@H](Cc3c[nH]cn3)NC(=O)[C@H](CCCCN)NC(=O)CNC(=O)[C@H](CC(C)C)NC(=O)[C@H](CC(N)=O)NC(=O)[C@H](Cc3c[nH]cn3)NC(=O)[C@H](CCSC)NC(=O)[C@H](CC(C)C)NC(=O)[C@H](CCC(N)=O)NC(=O)[C@@H](NC(=O)[C@H](CCC(=O)O)NC(=O)[C@H](CO)NC(=O)[C@@H](NC(=O)[C@@H](N)CO)C(C)C)[C@@H](C)CC)C(C)C)C(C)C)C(N)=O)C2=O)C/C1=C/C=C1\CCC[C@]2(C)[C@@H]([C@H](C)CCCC(C)(C)O)CC[C@@H]12 (some centres unmarked)	–	–	Sprague Dawley rat	subcutaneous, 1 µg/kg daily, 89 days	reference: reference dose	dose-normalized AUC	1
CCCC[C@H](NC(=O)[C@@H](NC(=O)[C@H](CC(=O)O)NC(=O)[C@H](CCC(N)=O)NC(=O)[C@H](CC(C)C)NC(=O)[C@H](CC(C)C)NC(=O)[C@H](CCCN)NC(=O)[C@H](CCCNC(=N)N)NC(=O)[C@H](C)NC(=O)[C@H](CO)NC(=O)[C@H](CC(C)C)NC(=O)[C@H](CCC(N)=O)NC(=O)[C@H](CC)NC(=O)[C@H](CC(C)C)NC(=O)[C@@H](NC(=O)[C@H](CCCN)NC(=O)[C@H](CCCNC(=N)N)NC(=O)[C@H](Cc1ccc(O)cc1)NC(=O)[C@H](CO)NC(=O)[C@@H](NC(=O)[C@@H](NC(=O)[C@H](Cc1ccccc1)NC(=O)[C@@H](NC(=O)[C@H](C)NC(=O)[C@H](CC(=O)O)NC(=O)[C@@H](C)NC(=O)[C@H](Cc1ccc(O)cc1)NC)[C@@H](C)CC)[C@@H](C)O)[C@@H](C)O)C(C)C)[C@@H](C)CC)C(=O)N[C@@H](CC(=O)O)C(=O)N[C@@H](CCCNC(=N)N)C(=O)NC	–	GH release, ELISA	male Sprague-Dawley rat, anaesthetised, serum	subcutaneous, 3 µg/kg, 30 min	–	serum GH level	250 ± 28.6 ng/mL
COc1cc(C(=O)OCCCN2CCCN(CCCOC(=O)c3cc(OC)c(OC)c(OCc4ccc([N+](=O)[O-])cc4)c3)CC2)cc(OC)c1OC	–	licking and flinching	mouse, both sexes, formalin pain	intrathecal, 1 to 100 nmol	–	formalin pain phase 1	no effect
CCc1nnc(NS(=O)(=O)c2ccc(NC(=S)NC(=O)/C=C/c3ccc(F)cc3)cc2)s1	–	–	NXS2 allograft, A/J mice, tumour	intraperitoneal, 20 mg/kg daily, 3 weeks	reference: vehicle	IL-6 level	decreased
CCCC[C@H](NC(=O)[C@@H](NC(=O)[C@H](CC(=O)O)NC(=O)[C@H](CCC(N)=O)NC(=O)[C@H](CC(C)C)NC(=O)[C@H](CC(C)C)NC(=O)[C@H](CCCN)NC(=O)[C@H](CCCNC(=N)N)NC(=O)[C@H](C)NC(=O)[C@H](CO)NC(=O)[C@H](CC(C)C)NC(=O)[C@H](CCC(N)=O)NC(=O)[C@H](CC)NC(=O)[C@H](CC(C)C)NC(=O)[C@@H](NC(=O)[C@H](CCCN)NC(=O)[C@H](CCCNC(=N)N)NC(=O)[C@H](Cc1ccc(O)cc1)NC(=O)[C@H](CO)NC(=O)[C@H](CCC(N)=O)NC(=O)[C@@H](NC(=O)[C@H](Cc1ccccc1)NC(=O)[C@@H](NC(=O)[C@H](C)NC(=O)[C@H](CC(=O)O)NC(=O)[C@H](C)NC(=O)CCc1ccc(O)cc1)[C@@H](C)CC)[C@@H](C)O)C(C)C)[C@@H](C)CC)C(=O)N[C@@H](CC(=O)O)C(=O)NCCCCNC(=N)N	–	GH release, ELISA	male Sprague-Dawley rat, anaesthetised, serum	subcutaneous, 3 µg/kg, 30 min	–	serum GH level	129 ± 13.3 ng/mL
COc1ccc(-c2oc3ccccc3c(=O)c2OCc2ccccc2)cc1	–	–	diabetic rat	7.5 mg/kg, p-nitrophenyl β-glucoside induced	–	serum alkaline phosphatase	193 ± 4.69 IU
CCCc1nc2ccc(N(Cc3ccco3)C(=O)c3ccccc3)cc2c(=O)n1Cc1ccc(-c2ccccc2-c2nnn[nH]2)cc1	Type-2 angiotensin II receptor (AGTR2, Homo sapiens, UniProt P50052, I304A)	ligand displacement, radioligand	–	cell membranes	–	Ki	38.9 nM
Cc1cc2c(cc1O)C=C1C=CC(=O)C(C)(C)[C@H]1CC2	–	refers to: Shigella, Parabacteroides, Clostridium	C57BL/6J mouse DSS colitis, faeces	dose not given	reference: DSS alone	relative abundance	decreased
COc1cc(CNC(=O)C[C@H](C)CCC=C(C)C)ccc1OCc1cn(-c2ccccc2F)nn1	OVCAR-5 ovarian cancer cells	SRB	–	10 µM, 48 h	–	growth percent	94.9%
O=Cc1c(O)ccc2ccccc12	HUVEC	RNA sequencing, refers to: E2F2	–	75 µM, 24 h	reference: DMSO	log2 fold change	-2.92
